Measured values collected from several papers.
± gives the spread as reported.
Sequence of UniProt P08575 (whole entry, looked up): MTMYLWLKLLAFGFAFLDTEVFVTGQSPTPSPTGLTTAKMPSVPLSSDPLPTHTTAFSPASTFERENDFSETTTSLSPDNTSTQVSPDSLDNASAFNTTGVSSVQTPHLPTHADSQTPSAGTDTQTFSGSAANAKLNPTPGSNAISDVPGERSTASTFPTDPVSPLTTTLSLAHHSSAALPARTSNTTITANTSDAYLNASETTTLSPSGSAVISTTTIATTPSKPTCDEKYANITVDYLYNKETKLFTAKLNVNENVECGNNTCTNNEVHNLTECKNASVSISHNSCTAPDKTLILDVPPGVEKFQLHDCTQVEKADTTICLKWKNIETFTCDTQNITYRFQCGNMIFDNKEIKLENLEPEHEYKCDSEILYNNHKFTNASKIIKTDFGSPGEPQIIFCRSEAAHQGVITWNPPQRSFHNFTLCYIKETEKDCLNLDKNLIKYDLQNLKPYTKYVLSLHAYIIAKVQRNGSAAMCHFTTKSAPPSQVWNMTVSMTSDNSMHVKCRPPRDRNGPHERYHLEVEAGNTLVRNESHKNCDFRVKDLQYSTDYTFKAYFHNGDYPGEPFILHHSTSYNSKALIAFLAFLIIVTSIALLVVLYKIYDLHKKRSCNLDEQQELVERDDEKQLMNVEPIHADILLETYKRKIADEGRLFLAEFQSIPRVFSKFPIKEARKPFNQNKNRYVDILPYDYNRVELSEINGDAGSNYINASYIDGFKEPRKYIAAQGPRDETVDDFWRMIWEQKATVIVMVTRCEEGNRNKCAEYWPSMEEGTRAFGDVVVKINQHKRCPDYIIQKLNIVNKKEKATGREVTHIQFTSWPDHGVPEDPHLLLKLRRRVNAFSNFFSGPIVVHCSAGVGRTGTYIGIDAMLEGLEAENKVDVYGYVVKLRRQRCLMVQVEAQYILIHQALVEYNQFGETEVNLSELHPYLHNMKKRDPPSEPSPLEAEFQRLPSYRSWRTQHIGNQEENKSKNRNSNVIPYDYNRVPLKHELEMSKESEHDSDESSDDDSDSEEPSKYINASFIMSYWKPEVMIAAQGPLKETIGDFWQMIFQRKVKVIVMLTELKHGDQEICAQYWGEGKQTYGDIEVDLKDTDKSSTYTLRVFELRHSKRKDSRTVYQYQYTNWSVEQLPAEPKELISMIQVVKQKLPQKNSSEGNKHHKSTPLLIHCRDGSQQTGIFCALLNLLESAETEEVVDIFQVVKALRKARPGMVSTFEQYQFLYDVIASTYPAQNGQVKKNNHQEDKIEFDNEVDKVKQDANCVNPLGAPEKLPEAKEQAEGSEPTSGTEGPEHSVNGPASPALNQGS

SMILES | tested on | test | test system | conditions | how to read | quantity | result
COc1cc2c(Oc3ccc4[nH]c(C)cc4c3F)ccnc2cc1OCC1(N)CC1 |  |  | paediatric recurrent refractory sarcoma | 8 mg |  | grade 1 or 2 Thrombocytopenia | 0%
[Cl-].[Cl-].[Pt+2].[Ru+2].c1ccc(-c2nc3ccccc3nc2-c2ccccn2)nc1.c1cnc2c(c1)ccc1cccnc12.c1cnc2c(c1)ccc1cccnc12 | Danio rerio |  | embryos | 45 µM, 48 h |  | survival rate | 80 ± 3%
CC[C@H](C)[C@@H]1NC(=O)[C@@H]2CCCN2C(=O)[C@H](CC(C)C)NC(=O)[C@H](CC(C)C)NC(=O)CNC(=O)[C@@H](NC(=O)[C@@H](NC(=O)[C@H](CC(=O)O)NC(=O)CNC(=O)[C@@H](NC(=O)[C@H](C)NC(=O)CNC(=O)[C@H](CCCCN)NC(=O)[C@H](CC(C)C)NC(=O)[C@H](CC(C)C)NC(=O)[C@H](CCCCN)NC(=O)CNC(=O)[C@@H](NC(=O)[C@@H](N)CC(C)C)C(C)C)C(C)C)C(C)C)CSSC[C@@H](C(=O)O)NC1=O |  | RNA-seq, measured: Amd-ps4 mRNA | mouse traumatic brain injury, frontal cortex and hippocampus | dose not given | relative to: TBI plus compound vs TBI | log2 fold change | -2.22
CC(=O)N1CCC(C(=O)N2CCN3C(=O)c4cc(-c5ccccc5)ccc4NC(=O)C3C2)CC1 (stereo not drawn) | Escherichia coli |  | WP2 uvrA | 15.8 µg/plate, with rat liver S9 |  | revertants per plate | 31
OC(CCN1CC=C(c2ccc(F)cc2)CC1)c1ccc(F)c2ccccc12 (stereo not drawn) | Salmonella typhimurium | SOS/umu test | TA1535/pSK1002, TGA medium | 0.000244 mg/mL, 4 h, together with: 10% rat liver S9 |  | survival | 92.9%
O=c1ccc2ccccc2o1 | NHEK | cell membrane permeability |  | concentration not given, 1 h, apoptosis, necrosis panel |  | chance response | 0.46%
O=[N+]([O-])c1ccc(NC2CCNCC2)c(C(F)(F)F)c1 | Salmonella typhimurium | genotoxicity, SOS/umu test | TA1535/pSK1002 | 0.004 mg/mL, 4 h, with S9, full range |  | induction factor | 0.7
COc1cc(Nc2ncc(F)c(Nc3ccc4c(n3)NC(=O)C(C)(C)O4)n2)cc(OC)c1OC | PTPRC (Homo sapiens, UniProt P08575) |  |  | CD45 |  | IC50 | > 10 µM
O=C(NC(=O)c1ccccc1Cl)Nc1ccc(Cl)cc1 | Ostrinia furnacalis | leaf dipping |  | 500 mg/L, 96 h |  | mortality | 85.4 ± 2.3%
O=[N+]([O-])c1ccc(N2CCN(CCC(O)c3ccc(F)cc3)CC2)c(C(F)(F)F)c1 (stereo not drawn) | Salmonella typhimurium | SOS/umu test | TA1535/pSK1002 | 0.031 mg/mL, 4 h, without S9, lower range |  | survival | 98.2%
CC[C@H](C)[C@H](NC(=O)[C@H](Cc1ccccc1)NC(=O)[C@H](CCC(=O)O)NC(=O)[C@H](CCCNC(=N)N)NC(=O)[C@H](C)NC(=O)[C@H](C)NC(=O)[C@H](CCC(N)=O)NC(=O)[C@H](CCC(=O)O)NC(=O)[C@H](CCC(=O)O)NC(=O)[C@H](CC(C)C)NC(=O)[C@H](Cc1ccc(O)cc1)NC(=O)[C@H](CO)NC(=O)[C@H](CO)NC(=O)[C@@H](NC(=O)[C@H](CC(=O)O)NC(=O)[C@H](CO)NC(=O)[C@@H](NC(=O)[C@H](Cc1ccccc1)NC(=O)[C@@H](NC(=O)CNC(=O)[C@H](CCC(=O)O)NC(=O)[C@H](C)NC(=O)CCc1c[nH]cn1)[C@@H](C)O)[C@@H](C)O)C(C)C)C(=O)N[C@@H](C)C(=O)N[C@@H](Cc1c[nH]c2ccccc12)C(=O)N[C@@H](CC(C)C)C(=O)N[C@H](C(=O)N[C@@H](CCCNC(=N)N)C(=O)NCC(=O)N[C@@H](CCCNC(=N)N)C(=O)N[C@@H](CCCCNC(=O)COCCOCCNC(=O)COCCOCCNC(=O)CC[C@H](NC(=O)CCCCCCCCCCCCCCCCC(=O)O)C(=O)O)C(=O)NCC(=O)NCC(=O)N[C@@H](CO)C(=O)N[C@@H](CCCCNc1c(NCCCCCN(O)C(=O)CCC(=O)NCCCCCN(O)C(=O)CCC(=O)NCCCCCN(O)C(C)=O)c(=O)c1=O)C(=O)O)C(C)C [zirconium-89 labelled] |  | gamma counting | rat, skin of neck | intravenous, 3 nmol/kg, 168 h |  | tissue uptake | 0.17 %ID/g
COCc1nn(Cc2ccc(Cn3ccccc3=O)cc2)cc1C(=O)NCc1nccc(OC)c1F | bacteria | Ames test, non-GLP |  | concentration not given |  | mutagenicity | negative
Fc1ccc(C2=CCNCC2)cc1 | Salmonella typhimurium | genotoxicity, SOS/umu test | TA1535/pSK1002 | 0.008 mg/mL, 4 h, without S9, full range |  | induction factor | 1.1
[Cl-].[Cl-].[Pt+2].[Ru+2].c1ccc(-c2nc3cc4ccccc4cc3nc2-c2ccccn2)nc1.c1cnc2c(c1)ccc1cccnc12.c1cnc2c(c1)ccc1cccnc12 | Danio rerio |  | embryos | 75 µM, 96 h |  | survival rate | 63.3 ± 3.8%
CO[C@H]1C[C@@H]2CC[C@@H](C)[C@@](O)(O2)C(=O)C(=O)N2CCCC[C@H]2C(=O)O[C@H]([C@H](C)C[C@@H]2CC[C@@H](OC(=O)NCCOCCOCCOCCOCCOCCOCCOCCOCCC(=O)N3CCc4cc(Cn5nc(-c6ccc7oc(N)nc7c6)c6c(N)ncnc65)ccc4C3)[C@H](OC)C2)C[C@@H](O)[C@H](C)/C=C(\C)[C@@H](O)[C@@H](OC)C(=O)[C@H](C)C[C@H](C)/C=C/C=C/C=C/1C |  | phase 1 dose escalation | advanced solid tumour patients | intravenous, 8 mg weekly, any grade |  | deaths due to TEAEs | 0%
CCCCN(CCCC)CC(O)c1cc(Cl)cc2c1-c1ccc(Cl)cc1/C2=C/c1ccc(Cl)cc1 (stereo not drawn) | Plasmodium falciparum |  | W2 |  | relative to: HepG2 CC50 over IC50 | selectivity index | > 24000
[Cl-].[Cl-].[Pt+2].[Ru+2].c1ccc(-c2nccnc2-c2ccccn2)nc1.c1cnc2c(c1)ccc1cccnc12.c1cnc2c(c1)ccc1cccnc12 | Danio rerio |  | embryos | 75 µM, 0 h |  | survival rate | 100%
C[C@H]1CN(c2n[nH]c3nc(N[C@H]4CC[C@H](NS(=O)(=O)CCC(F)(F)F)CC4)ncc23)CCO1 | Putative ribosomal protein uL10-like (RPLP0P6, Homo sapiens, UniProt Q8NHW5) | competitor, Kinobeads competition, measured: RPLP0-like | human cell extract | 20 µM | relative to: vehicle | relative abundance | 1.09
O[C@H](CNCCN1CCN(C(c2ccccc2)c2ccccc2)CC1)c1cc(Cl)cc2c1-c1ccc(Cl)cc1C2 | Plasmodium falciparum |  | W2 |  | relative to: HepG2 CC50 over IC50 | selectivity index | 615
COc1cccc(-c2n[nH]c(SCc3ccccn3)n2)c1OC | Escherichia coli | Ames test, plate incorporation | WP2 uvrA | 5.0 mg/plate, with rat liver S9 |  | revertant colonies per plate | 37
Cc1cc(C(=O)NC(C)(C)COc2cccc3c2C(N)=NS(=O)(=O)N3)cc(C)n1 | Escherichia coli | Ames test, initial | WP2 uvrA | 15.0 µg/plate, together with: rat liver S9 | relative to: solvent control | revertant ratio | 0.9

Excerpt of the above:
SMILES | tested on | test | test system | conditions | how to read | quantity | result
O=c1ccc2ccccc2o1 | NHEK | cell membrane permeability |  | concentration not given, 1 h, apoptosis, necrosis panel |  | chance response | 0.46%
Fc1ccc(C2=CCNCC2)cc1 | Salmonella typhimurium | genotoxicity, SOS/umu test | TA1535/pSK1002 | 0.008 mg/mL, 4 h, without S9, full range |  | induction factor | 1.1
COc1cc2c(Oc3ccc4[nH]c(C)cc4c3F)ccnc2cc1OCC1(N)CC1 |  |  | paediatric recurrent refractory sarcoma | 8 mg |  | grade 1 or 2 Thrombocytopenia | 0%
OC(CCN1CC=C(c2ccc(F)cc2)CC1)c1ccc(F)c2ccccc12 (stereo not drawn) | Salmonella typhimurium | SOS/umu test | TA1535/pSK1002, TGA medium | 0.000244 mg/mL, 4 h, together with: 10% rat liver S9 |  | survival | 92.9%
